Measurements from different studies.
Parts stem from different laboratories: compare values within a part only.

Set 1
Compound: Cc1ccc(O)c(C)c1-c1cnc2[nH]c(-c3cnc(N4CCC5(CC4)CC(N4CCN(c6ccc(NC7CCC(=O)NC7=O)cc6F)CC4)CO5)nc3)cc2c1C#N (centres unmarked)
Target: Membrane-associated tyrosine- and threonine-specific cdc2-inhibitory kinase (PKMYT1, Homo sapiens, UniProt Q99640)
UniProt Q99640, sequence (whole entry, looked up): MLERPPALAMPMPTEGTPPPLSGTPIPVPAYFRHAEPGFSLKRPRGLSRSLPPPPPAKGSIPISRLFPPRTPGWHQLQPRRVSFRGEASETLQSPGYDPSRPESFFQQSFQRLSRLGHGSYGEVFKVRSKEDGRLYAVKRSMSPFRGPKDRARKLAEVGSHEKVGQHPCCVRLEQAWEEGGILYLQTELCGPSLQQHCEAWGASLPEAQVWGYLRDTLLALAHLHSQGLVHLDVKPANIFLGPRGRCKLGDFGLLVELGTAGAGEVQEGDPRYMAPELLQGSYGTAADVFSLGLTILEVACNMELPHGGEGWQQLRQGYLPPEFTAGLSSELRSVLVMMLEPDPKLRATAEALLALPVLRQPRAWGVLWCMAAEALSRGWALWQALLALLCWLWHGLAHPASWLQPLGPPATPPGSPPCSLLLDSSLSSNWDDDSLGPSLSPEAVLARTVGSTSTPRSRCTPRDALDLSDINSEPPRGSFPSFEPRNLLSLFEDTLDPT
Measurement: degradation
HCC1599; 12.35 nM: 75.2%
HCC1599; 37.04 nM: 79%
HuCCT-1; 0.46 nM: 28.1%
MDA-MB-157; 333.33 nM: 62.5%
HCC1599; 111.11 nM: 75.2%
HCC1599; 4.12 nM: 68.4%
MDA-MB-157; 0.46 nM: 24.8%
MDA-MB-157; 12.35 nM: 68.1%

Set 2
SMILES: Cc1cc(OCC(=O)NC(C)C)ccc1Cl
Target: Sodium-dependent neutral amino acid transporter B(0)AT1 (SLC6A19, Homo sapiens, UniProt Q695T7)
UniProt Q695T7, sequence (whole entry, looked up): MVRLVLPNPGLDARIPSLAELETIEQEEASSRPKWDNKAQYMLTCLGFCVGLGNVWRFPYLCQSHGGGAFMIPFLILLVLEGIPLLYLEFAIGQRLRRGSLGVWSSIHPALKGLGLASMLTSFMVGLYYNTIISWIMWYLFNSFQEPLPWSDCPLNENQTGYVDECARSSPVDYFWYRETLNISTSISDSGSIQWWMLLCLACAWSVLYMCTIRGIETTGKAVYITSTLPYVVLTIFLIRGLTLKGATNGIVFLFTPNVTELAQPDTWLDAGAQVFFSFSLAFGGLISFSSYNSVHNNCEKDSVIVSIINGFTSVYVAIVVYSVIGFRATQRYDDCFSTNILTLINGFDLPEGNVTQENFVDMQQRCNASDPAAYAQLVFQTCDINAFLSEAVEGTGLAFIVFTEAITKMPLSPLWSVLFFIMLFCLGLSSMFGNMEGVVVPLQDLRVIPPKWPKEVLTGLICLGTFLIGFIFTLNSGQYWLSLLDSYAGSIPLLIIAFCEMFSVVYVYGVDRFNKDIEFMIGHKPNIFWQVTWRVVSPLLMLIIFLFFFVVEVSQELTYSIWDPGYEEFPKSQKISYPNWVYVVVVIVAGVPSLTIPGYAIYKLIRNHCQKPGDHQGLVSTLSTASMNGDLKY
Mode: inhibitor
Method: FLIPR membrane potential
Cell line: CHO-BC cells
Setting: unit not given
Measurement: remaining transport activity
0.1 µM; relative to: uninhibited cells: 0.889
0.003 µM; relative to: uninhibited cells: 1.09
0.001 µM; relative to: uninhibited cells: 1.01
100 µM; relative to: uninhibited cells: 0.0516
0.3 µM; relative to: uninhibited cells: 0.683
0.01 µM; relative to: uninhibited cells: 1.02
30 µM; relative to: uninhibited cells: 0.0515
10 µM; relative to: uninhibited cells: 0.152
3 µM; relative to: uninhibited cells: 0.198
0.03 µM; relative to: uninhibited cells: 0.89
100 µM; relative to: no inhibitor: 0.104
1 µM; relative to: uninhibited cells: 0.305

Set 3
Structure (SMILES): CCN1/C(=C/C=C2\CCCC(/C=C/C3=[N+](CC)c4ccccc4C3(C)C)=C2NCCCCCCCCN2CCC(Nc3nc4ccccc4n3Cc3ccc(F)cc3)CC2)C(C)(C)c2ccccc21
Cell line: U-87 MG
Concentration: concentration not given
Relative to: DMSO
Measurement: log2 fold change
measured: RAD51 mRNA: -1.69
measured: UBASH3B mRNA: -0.825
measured: UBE2C mRNA: -2.02
measured: DLG1 mRNA: -0.861
measured: TMEM19 mRNA: -1.09
measured: BANP mRNA: 0.907
measured: ZNF3 mRNA: 0.882
measured: SPAG5 mRNA: -1.67
measured: SASS6 mRNA: -1.37
measured: PARP1 mRNA: -1.33
measured: KLF2 mRNA: -1.02
measured: TLR6 mRNA: -1.6
measured: CREBRF mRNA: 2
measured: TUBA4A mRNA: -1.94
measured: AMOTL2 mRNA: -2.03
measured: MATN3 mRNA: -1.36

Set 4
SMILES: C[C@@H]1CN(c2ccc(-c3cc(C(=O)NCCOCCOCCOCCOCCNC(=O)Cn4cc(-c5[nH]cc(C(=O)N[C@@H](CC(N)=O)c6ccc(F)c(Cl)c6)c5-c5ccc(Cl)cc5F)cn4)ccc3F)cc2NC(=O)c2c[nH]c(=O)cc2C(F)(F)F)C[C@H](C)N1C
Effect on: thermal unfolding
Method: differential scanning fluorimetry
Concentration: 5.5 µM
Direction: higher = more unfolded
Measurement: SYPRO Orange fluorescence
DCAF1: DDB1- and CUL4-associated factor 1 (DCAF1, Homo sapiens, UniProt Q9Y4B6)
UniProt Q9Y4B6, sequence (whole entry, looked up): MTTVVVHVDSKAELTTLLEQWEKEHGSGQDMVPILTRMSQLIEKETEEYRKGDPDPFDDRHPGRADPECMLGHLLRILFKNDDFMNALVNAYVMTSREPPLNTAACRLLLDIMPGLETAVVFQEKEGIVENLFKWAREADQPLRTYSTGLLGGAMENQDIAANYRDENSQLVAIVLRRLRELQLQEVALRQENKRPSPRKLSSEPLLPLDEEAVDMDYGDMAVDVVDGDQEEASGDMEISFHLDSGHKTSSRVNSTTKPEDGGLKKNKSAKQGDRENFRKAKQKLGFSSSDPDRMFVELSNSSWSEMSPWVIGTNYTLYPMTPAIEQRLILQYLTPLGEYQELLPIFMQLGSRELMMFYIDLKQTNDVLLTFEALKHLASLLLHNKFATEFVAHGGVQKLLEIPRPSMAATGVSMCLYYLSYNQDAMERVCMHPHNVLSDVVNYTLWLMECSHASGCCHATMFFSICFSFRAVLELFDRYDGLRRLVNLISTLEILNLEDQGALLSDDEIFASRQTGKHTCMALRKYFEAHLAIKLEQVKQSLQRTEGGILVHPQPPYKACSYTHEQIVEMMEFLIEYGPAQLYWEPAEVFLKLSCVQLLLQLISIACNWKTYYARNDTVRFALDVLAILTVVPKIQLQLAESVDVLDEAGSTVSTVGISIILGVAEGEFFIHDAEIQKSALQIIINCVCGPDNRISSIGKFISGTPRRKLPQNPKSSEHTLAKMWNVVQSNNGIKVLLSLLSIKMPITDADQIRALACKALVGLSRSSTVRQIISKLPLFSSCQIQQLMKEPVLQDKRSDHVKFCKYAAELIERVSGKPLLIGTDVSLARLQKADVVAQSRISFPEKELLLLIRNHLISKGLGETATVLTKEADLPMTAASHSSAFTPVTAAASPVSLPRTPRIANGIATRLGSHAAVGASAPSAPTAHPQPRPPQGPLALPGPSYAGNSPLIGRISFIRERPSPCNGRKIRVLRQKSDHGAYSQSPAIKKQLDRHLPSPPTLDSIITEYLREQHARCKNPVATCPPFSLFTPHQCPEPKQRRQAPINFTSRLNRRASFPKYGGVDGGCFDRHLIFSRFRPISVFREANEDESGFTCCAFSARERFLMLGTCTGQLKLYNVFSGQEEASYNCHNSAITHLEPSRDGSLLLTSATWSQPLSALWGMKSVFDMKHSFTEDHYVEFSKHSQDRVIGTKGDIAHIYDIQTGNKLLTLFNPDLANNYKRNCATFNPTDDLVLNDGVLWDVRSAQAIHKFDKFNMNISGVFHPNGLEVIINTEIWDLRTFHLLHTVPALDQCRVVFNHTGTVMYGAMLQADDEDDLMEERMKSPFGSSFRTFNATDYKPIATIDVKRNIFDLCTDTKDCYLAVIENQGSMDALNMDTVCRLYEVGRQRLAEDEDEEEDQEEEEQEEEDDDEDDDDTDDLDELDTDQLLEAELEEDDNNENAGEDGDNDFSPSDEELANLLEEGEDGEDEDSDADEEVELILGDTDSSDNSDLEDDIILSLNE
WDR5: WD repeat-containing protein 5 (WDR5, Homo sapiens, UniProt P61964)
DCAF1; 91.61 °C: 33600 a.u.
DCAF1; 89.61 °C: 35500 a.u.
DCAF1; 40 °C: 10300 a.u.
DCAF1; 57.61 °C: 27200 a.u.
WDR5; 59.41 °C: 10700 a.u.
DCAF1; 77.21 °C: 46800 a.u.
WDR5; 46.8 °C: 14300 a.u.
WDR5; 88.81 °C: 43600 a.u.
DCAF1; 39.2 °C: 9990 a.u.
WDR5; 32 °C: 14500 a.u.
DCAF1; 76.61 °C: 47600 a.u.
